Measured values collected from several papers.
Lines come from different studies, so protocols differ.
Target: Dual specificity testis-specific protein kinase 1 (TESK1, Homo sapiens, UniProt Q15569)

CNC(=O)C1CCN(c2cc(C)c(F)cc2NC(=O)c2ccc(-c3cc(O)ccc3C)c(C)c2)CC1  remaining binding (binding, competition with immobilised ligand; 1 µM): 99%
Cc1cnc2nc1Nc1cccc(c1)COC/C=C/COCc1cc(ccc1OCCN1CCOCC1)N2  remaining binding (binding, competition with immobilised ligand; 0.1 µM): 100%
COc1cc(Nc2nc(C)cc(-c3cnn4nc(OC)ccc34)n2)cc(C(F)(F)F)c1  remaining binding (binding, competition with immobilised ligand; 1 µM): 73%
Nc1ncc2c(n1)-c1c([nH]c3ccc(C4=CCOCC4)cc13)CCC2  remaining binding (binding, competition with immobilised ligand; 1 µM): 100%
Nc1ncc(-c2cc(-c3cnn(CC(F)(F)F)c3)ncc2F)nc1C(=O)NC1CNCC(F)C1 (stereo not drawn)  remaining activity (enzyme activity; 1 µM; relative to: DMSO control): 98%
CN1CCN(Cc2ccc(-c3ccc(CO[C@H]4CCC[C@@H]4NC(=O)c4cc(-c5cnn(C)c5)cnc4N)cc3)cc2)CC1  inhibition (enzyme activity, inhibitor; 0.1 µM): -7%
C=CC(=O)N1CCCC(n2c(=O)c3ncccc3n(Cc3ccc(Oc4ccccc4)cc3)c2=O)C1 (stereo not drawn)  remaining binding (cell-free assay, competition with immobilised ligand; 1 µM): 100%
C=CC(=O)N1Cc2nc(-c3cc(-c4cc(Cl)cnc4Cl)c(F)cc3F)n(-c3ccncn3)c2C1  inhibition (cell-free assay, inhibitor; 1 µM): -0.8%
C=CC(=O)N1CCc2ccc(-n3c(=O)ccc4cnc5ccc(-c6cnn(C)c6)cc5c43)cc21  remaining binding (KINOMEscan; 1 µM; relative to: DMSO control): 100%
CC(C)=CC1OC(C)(C)C2C=C3C(=O)C(Cl)=CC(O)C3C3C(O)C4OC4C(=O)C132 (stereo not drawn)  remaining binding (cell-free assay, competition with immobilised ligand; 10 µM): 93%
NC(=O)C[C@H]1CCc2sc3ncnc(O[C@H]4CC[C@H](N5CCOCC5)CC4)c3c21  inhibition (enzyme activity, inhibitor; 10 µM): 14%
Cc1ccc(C(=O)Nc2ccc(CN3CCN(C)CC3)c(C(F)(F)F)c2)cc1C#Cc1cnc2cccnn12  upper asymptote (target engagement, NanoBRET; human cells): 1170
Cc1ccc(-c2c(/C=C(\C#N)C(=O)NC(C)C)n(CCCO)c3ncnc(N)c23)cc1  remaining binding (cell-free assay, competition with immobilised ligand; 1 µM): 84%
CNC1C[S+]2CC[S+]3CC[S+](C1)[Ru-4]321([N]=C=S)[n]2c3ccc(OC)cc3c3c4c(c5cc(F)c[n+]1c5c32)C(=O)NC4=O (stereo not drawn)  remaining binding (KinomeScan; 0.1 µM; relative to: untreated): 100%
NC(=O)[C@@H](O)C[C@H]1CCc2sc3ncnc(O[C@H]4CC[C@H](N5CCOCC5)CC4)c3c21  inhibition (enzyme activity, inhibitor; 10 µM): 31%
COc1cc(Nc2nccc(-c3cnn4nc(OC)ccc34)n2)cc(C(F)(F)F)c1  remaining binding (binding, competition with immobilised ligand; 1 µM): 100%
COc1c(Cl)cccc1Nc1c(-c2ccncc2C#C[C@@]2(C)CCCN2C(=O)/C=C/CN(C)C)[nH]c2c1C(=O)NCC2  remaining binding (binding, competition with immobilised ligand; 3 µM): 85%
CCN1CCN(Cc2ccc(C(=O)Nc3ccc(C)c(NCc4cnc5[nH]ccc5c4OC)c3)cc2C(F)(F)F)CC1  remaining binding (binding, competition with immobilised ligand; 1 µM): 94%
